Published values of several laboratories.
Compare with care: the assays were run in different laboratories. Values joined by “and” are separate records of one study, mostly repeats; a detail may differ. Numbers after ± are the reported error.
NR4A1: Nuclear receptor subfamily 4 group A member 1 (NR4A1, Homo sapiens, UniProt P22736)
UniProt P22736, sequence (whole entry, looked up): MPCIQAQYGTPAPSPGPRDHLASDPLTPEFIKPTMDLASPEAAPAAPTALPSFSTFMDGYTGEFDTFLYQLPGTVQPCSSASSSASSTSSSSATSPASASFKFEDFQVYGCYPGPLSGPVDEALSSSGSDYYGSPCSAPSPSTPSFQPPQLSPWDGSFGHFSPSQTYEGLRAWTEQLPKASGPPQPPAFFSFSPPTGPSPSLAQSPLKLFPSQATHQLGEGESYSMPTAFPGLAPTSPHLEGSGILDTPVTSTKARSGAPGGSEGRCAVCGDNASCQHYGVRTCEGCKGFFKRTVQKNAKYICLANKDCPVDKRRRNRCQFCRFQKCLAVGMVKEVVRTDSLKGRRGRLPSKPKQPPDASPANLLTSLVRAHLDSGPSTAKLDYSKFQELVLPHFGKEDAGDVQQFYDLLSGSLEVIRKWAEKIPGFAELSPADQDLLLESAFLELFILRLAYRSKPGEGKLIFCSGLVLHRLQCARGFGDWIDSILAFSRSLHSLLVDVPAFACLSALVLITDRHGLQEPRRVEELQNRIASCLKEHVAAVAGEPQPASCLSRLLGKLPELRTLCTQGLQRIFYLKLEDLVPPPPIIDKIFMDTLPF
Tumor necrosis factor receptor superfamily member 9/Nectin-4: Tumor necrosis factor receptor superfamily member 9/Nectin-4 (Homo sapiens, UniProt Q07011+Q96NY8)
UniProt Q07011, sequence (whole entry, looked up): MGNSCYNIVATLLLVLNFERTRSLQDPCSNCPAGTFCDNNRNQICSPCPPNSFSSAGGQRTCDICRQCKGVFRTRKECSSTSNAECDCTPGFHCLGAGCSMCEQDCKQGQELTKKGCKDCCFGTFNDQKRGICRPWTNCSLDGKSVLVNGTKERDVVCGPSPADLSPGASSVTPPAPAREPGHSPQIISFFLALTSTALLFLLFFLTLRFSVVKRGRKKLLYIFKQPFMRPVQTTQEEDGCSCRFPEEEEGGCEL
UniProt Q96NY8, sequence (whole entry, looked up): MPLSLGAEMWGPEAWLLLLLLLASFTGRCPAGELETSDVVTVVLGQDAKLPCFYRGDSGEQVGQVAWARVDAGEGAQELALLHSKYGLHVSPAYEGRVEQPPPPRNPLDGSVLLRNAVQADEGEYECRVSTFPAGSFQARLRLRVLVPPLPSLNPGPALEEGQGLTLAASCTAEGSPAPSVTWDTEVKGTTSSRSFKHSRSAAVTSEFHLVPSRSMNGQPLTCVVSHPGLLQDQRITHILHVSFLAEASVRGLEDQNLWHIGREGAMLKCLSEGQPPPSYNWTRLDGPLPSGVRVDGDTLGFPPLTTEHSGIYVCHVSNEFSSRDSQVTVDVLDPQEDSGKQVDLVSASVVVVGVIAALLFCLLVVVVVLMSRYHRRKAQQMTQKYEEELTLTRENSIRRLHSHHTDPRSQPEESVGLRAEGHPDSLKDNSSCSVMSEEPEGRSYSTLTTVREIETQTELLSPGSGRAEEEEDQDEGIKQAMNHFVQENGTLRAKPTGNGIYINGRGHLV
T1: ssDNA, aptamer; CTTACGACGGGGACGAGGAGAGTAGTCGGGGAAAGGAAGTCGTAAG
T2: ssDNA, aptamer; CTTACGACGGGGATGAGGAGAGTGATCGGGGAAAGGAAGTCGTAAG
UniProt Q64663, sequence (whole entry, unmodified, looked up): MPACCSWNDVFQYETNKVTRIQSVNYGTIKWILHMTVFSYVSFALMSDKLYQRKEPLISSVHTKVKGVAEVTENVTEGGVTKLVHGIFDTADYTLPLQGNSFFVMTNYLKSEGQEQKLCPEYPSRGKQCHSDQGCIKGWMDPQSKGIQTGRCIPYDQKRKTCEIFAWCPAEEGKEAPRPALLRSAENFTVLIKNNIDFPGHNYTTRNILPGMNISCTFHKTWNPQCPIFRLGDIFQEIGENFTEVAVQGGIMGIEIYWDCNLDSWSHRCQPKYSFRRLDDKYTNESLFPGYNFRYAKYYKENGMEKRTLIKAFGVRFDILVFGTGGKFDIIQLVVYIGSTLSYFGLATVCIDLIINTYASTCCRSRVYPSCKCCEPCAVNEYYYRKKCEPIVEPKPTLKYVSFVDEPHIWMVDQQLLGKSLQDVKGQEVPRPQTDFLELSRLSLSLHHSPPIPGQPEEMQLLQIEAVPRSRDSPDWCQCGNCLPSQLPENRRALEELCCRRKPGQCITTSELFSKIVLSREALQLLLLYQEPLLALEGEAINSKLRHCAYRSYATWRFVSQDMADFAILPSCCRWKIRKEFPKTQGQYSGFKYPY
UniProt O75762, sequence (whole entry, looked up): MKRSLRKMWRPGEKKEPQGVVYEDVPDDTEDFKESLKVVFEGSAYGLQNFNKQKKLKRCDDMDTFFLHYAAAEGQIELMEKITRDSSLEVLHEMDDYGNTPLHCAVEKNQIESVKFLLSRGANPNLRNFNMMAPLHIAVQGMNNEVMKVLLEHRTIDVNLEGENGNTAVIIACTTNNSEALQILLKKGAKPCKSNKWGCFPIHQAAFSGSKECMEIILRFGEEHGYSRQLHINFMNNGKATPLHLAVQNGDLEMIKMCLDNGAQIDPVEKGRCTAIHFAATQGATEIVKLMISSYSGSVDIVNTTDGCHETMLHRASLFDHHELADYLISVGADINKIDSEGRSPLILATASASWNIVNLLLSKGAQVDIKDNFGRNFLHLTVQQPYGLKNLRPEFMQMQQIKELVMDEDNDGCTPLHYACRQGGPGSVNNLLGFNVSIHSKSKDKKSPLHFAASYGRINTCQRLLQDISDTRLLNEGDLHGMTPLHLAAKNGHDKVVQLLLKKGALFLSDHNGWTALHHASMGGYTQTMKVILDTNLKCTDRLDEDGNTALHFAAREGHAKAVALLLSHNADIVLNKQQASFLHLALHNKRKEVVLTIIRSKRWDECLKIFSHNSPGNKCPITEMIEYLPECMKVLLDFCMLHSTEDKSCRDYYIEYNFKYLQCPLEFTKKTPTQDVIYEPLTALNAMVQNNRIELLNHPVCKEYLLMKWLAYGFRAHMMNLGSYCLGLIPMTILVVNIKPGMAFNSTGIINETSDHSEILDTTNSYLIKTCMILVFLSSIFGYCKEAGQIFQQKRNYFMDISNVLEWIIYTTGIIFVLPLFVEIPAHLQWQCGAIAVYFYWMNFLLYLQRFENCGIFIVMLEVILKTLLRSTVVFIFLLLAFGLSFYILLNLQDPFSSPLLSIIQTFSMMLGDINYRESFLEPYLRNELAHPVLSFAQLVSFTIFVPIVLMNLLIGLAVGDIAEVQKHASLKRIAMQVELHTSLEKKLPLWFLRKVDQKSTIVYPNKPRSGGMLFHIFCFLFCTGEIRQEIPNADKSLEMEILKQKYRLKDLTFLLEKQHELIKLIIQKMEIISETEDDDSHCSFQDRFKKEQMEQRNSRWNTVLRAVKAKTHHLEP
UniProt Q8NER1, sequence (whole entry, looked up): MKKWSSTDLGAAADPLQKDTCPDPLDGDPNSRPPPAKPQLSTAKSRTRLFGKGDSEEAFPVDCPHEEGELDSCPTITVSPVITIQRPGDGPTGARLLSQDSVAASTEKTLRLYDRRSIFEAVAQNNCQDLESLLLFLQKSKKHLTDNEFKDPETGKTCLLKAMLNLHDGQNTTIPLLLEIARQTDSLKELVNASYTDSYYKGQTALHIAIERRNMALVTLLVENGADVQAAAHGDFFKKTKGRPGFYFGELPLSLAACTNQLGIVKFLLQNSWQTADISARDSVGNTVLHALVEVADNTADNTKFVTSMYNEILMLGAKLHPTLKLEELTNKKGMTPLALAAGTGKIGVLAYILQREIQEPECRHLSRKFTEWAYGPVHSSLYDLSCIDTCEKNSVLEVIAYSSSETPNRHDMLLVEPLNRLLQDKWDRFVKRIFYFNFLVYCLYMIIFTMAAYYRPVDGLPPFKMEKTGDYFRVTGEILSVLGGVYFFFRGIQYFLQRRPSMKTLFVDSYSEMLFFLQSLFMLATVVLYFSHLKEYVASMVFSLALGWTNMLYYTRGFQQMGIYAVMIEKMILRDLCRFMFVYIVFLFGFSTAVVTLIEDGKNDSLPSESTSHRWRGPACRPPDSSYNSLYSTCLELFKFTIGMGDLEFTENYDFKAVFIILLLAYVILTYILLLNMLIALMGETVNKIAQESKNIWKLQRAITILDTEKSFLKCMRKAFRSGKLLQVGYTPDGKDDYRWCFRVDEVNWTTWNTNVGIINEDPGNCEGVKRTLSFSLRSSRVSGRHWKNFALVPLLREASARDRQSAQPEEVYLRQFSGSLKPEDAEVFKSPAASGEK
UniProt O76090, sequence (whole entry, unmodified, looked up): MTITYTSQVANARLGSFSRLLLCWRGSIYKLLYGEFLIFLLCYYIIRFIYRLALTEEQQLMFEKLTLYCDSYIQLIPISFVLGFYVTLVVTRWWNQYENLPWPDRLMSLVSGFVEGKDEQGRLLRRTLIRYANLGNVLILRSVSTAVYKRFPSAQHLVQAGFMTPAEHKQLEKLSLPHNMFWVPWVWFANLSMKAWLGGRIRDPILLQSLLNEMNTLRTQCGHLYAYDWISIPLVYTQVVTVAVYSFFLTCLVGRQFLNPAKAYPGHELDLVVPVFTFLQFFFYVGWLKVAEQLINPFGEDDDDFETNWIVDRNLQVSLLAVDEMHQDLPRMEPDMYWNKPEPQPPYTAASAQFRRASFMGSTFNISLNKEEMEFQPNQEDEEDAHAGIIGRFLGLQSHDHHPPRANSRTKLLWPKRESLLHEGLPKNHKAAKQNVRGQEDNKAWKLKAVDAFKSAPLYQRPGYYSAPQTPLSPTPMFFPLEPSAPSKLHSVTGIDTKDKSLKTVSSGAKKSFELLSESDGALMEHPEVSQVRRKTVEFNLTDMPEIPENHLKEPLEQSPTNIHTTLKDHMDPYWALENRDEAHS
UniProt Q16774, sequence (whole entry, unmodified, looked up): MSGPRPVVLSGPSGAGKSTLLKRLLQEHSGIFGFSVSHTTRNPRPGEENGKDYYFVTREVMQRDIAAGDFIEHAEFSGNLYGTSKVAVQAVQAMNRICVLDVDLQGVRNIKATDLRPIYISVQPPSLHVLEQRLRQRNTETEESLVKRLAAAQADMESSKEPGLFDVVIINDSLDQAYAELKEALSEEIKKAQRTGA
UniProt P21964, sequence (whole entry, looked up): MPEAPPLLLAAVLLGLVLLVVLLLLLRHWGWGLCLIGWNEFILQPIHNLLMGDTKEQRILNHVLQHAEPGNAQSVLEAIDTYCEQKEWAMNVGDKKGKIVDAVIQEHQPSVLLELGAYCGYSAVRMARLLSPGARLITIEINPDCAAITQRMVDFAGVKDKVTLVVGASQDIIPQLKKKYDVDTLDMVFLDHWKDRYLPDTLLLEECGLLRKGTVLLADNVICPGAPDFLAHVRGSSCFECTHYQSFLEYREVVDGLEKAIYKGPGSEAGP

SMILES | target | test | system | setting | how to read | measurement | result
CCN1CCN(c2cc(N3CCN(CC)CC3)nc(NCCNc3ccnc4cc(Cl)ccc34)n2)CC1 | NR4A1 | reporter gene, Gal4 hybrid reporter |  | 20 µM | reference: vehicle | activation | 2.37 fold
O=c1ccn([C@@H]2O[C@H](COP(=O)(O)OP(=O)(O)OP(=O)(O)O)[C@@H](O)[C@H]2O)c(=O)[nH]1 | DNA-directed RNA polymerase subunit beta' / DNA-directed RNA polymerase subunit beta (rpoC/rpoB, Escherichia coli, UniProt P0A8T7+P0A8V2) | RNA extension, rapid quench-flow | Escherichia coli, elongation complex, 6-MI template | 200 µM, 25 °C, slow complex fraction |  | nucleotide addition rate | 1 ± 0.1 s⁻¹
Nc1ncnc2c1ncn2[C@@H]1O[C@H](COP(=O)(O)OP(=O)(O)OP(=O)(O)O)[C@@H](O)[C@H]1O | T1, ssDNA, aptamer | ITC |  |  |  | Kd | 0.884 µM
O=C1c2ccccc2CCN1CCCCN1CCN(c2ccccn2)CC1 | D(4) dopamine receptor (DRD4, Homo sapiens, UniProt P21917) | radioligand binding |  | concentration not given, with: [3H]N-methylspiperone |  | inhibition | 100%
O=C(O)c1ccc(-c2ccc3[nH]ccc3c2)cn1 | Tumor necrosis factor receptor superfamily member 1A, extracellular domain (Homo sapiens, UniProt P19438) | binding, SPR |  |  |  | ligand efficiency | 0.26
Nc1nc2c(ncn2[C@@H]2O[C@@H]3COP(=O)(O)O[C@H]4[C@@H](O)[C@H](n5cnc6c(=O)[nH]c(N)nc65)O[C@@H]4COP(=O)(O)O[C@H]3[C@H]2O)c(=O)[nH]1 | Cell cycle histidine kinase CckA, DHp-CA domains (Caulobacter vibrioides, UniProt Q9X688) | binding, ITC |  | with: ADP 5 mM |  | ΔH | 0.911 ± 0.0588 kcal/mol
Nc1ccc(C(=O)O)cc1 | BEST1, with wild-type BEST1 (Homo sapiens, UniProt O76090, D302A) | ion current, whole-cell patch clamp | HEK293 co-expressing mutant and wild-type | concentration not given, voltage 40 mV |  | current density | 8.2 pA/pF and 3.87 pA/pF and 7.68 pA/pF and 7.03 pA/pF and 3.31 pA/pF and 10.2 pA/pF
C[C@H]1O[C@@H](O[C@H]2CC[C@@]3(C)[C@@H](CC[C@]4(C)[C@@H]3C=CC3=C5CC(C)(C)CC[C@]5(CO)[C@@H](O)C[C@]34C)[C@]2(C)CO)[C@H](O)[C@@H](O[C@@H]2O[C@H](CO)[C@@H](O)[C@H](O)[C@H]2O)[C@H]1O | NAD-dependent protein deacetylase sirtuin-1 (SIRT1, Homo sapiens, UniProt Q96EB6) | binding, microscale thermophoresis |  | 150 nM |  | MST normalised fluorescence | 884 a.u.
Nc1ncnc2c1ncn2[C@@H]1O[C@H](COP(=O)(O)OP(=O)(O)OP(=O)(O)O)[C@@H](O)[C@H]1O | P2X purinoceptor 2 (P2RX2, Homo sapiens, UniProt Q9UBL9, D148K/E146K/L150K/M149R) | ion current, agonist, two-electrode voltage clamp | Xenopus oocytes | concentration not given |  | peak current | 3880 nA
COc1cc(CNC(=O)CCCC/C=C/C(C)C)ccc1O | Transient receptor potential cation channel subfamily V member 1 (TRPV1, Homo sapiens, UniProt Q8NER1) | channel activation, FLIPR calcium | HEK293T | 0.247 µM | higher = more activation | calcium response | 17.9 a.u. and 15.8 a.u. and 11.6 a.u. and 11.8 a.u.
c1coc(-c2n[nH]cc2-c2ccnc3ccccc23)c1 | Serine/threonine-protein kinase SCH9 (SCH9, Candida albicans, UniProt Q5AHG6) | kinase binding, MIB/MS competition | Candida albicans lysate | 10 µM | reference: DMSO, negative = stronger binding | log2 fold change | -0.43
O=C(O)c1ccc(Nc2ncc3c(n2)-c2ccc(Cl)cc2C(c2c(F)cccc2F)=NC3)cc1 | Fer(h) | kinase activity |  | 1 µM |  | remaining activity | 57%
Nc1ncnc2c1ncn2[C@@H]1O[C@H](COP(=O)(O)OP(=O)(O)O)[C@@H](O)[C@H]1O | GUK1 (Homo sapiens, UniProt Q16774) | binding, isothermal titration calorimetry |  | molar ratio 1.741, fitted curve |  | ΔH | -0.526 kcal/mol
Cc1nc(CSc2nc(-c3ccc(C(C)(C)C)cc3)n[nH]2)cs1 | Sodium channel protein type 8 subunit alpha, C-terminal domain (SCN8A, Homo sapiens, UniProt Q9UQD0) | binder, thermal shift |  | 25 µM |  | delta Tm | 0.3 °C
COc1ccc(Cc2nnc(NS(=O)(=O)c3cccc(Cl)c3)s2)cc1 | Glutathione hydrolase 1 proenzyme, without transmembrane domain (Homo sapiens, UniProt P19440) | GSH hydrolysis, uncompetitive inhibitor |  | 37 °C, binds gamma-glutamyl enzyme, with: GSH 5-20 µM |  | Kii | 67 ± 6 µM
[Ca] | Transient receptor potential cation channel subfamily A member 1 (TRPA1, Homo sapiens, UniProt O75762) | ion current, two-electrode voltage clamp | Xenopus oocytes | 100 µM, -80 mV, with: extracellular Ca2+ | reference: current before Ca2+ addition | potentiation | 27 fold change and 1.84 fold change and 6.7 fold change and 5.85 fold change and 11.3 fold change and 0.868 fold change
C=CC(=O)N1CCC(COCC(=O)N2CCN(c3nc(-c4cnc(N)nc4C(F)F)nc(N4CCOC[C@@H]4C)n3)CC2)CC1 | Non-receptor tyrosine-protein kinase TYK2, JH1 domain (TYK2, Homo sapiens, UniProt P29597) | KINOMEscan |  | 1 µM | reference: DMSO control | remaining binding | 81%
O=S(=O)(O)C1CCNCC1 | Sodium- and chloride-dependent taurine transporter (SLC6A6, Homo sapiens, UniProt P31641, G62A) | binding, microscale thermophoresis |  | 122 nM, room temperature, with: 50 nM labelled protein | higher = more binding | normalised MST signal | -0.0289

SMILES | target | test | system | setting | how to read | measurement | result
CCCC[C@@H]1NC(=O)[C@H](Cc2ccc(O)cc2)NC(=O)[C@@H]2CCCN2C(=O)[C@H](CC(=O)O)NC(=O)[C@H](C)NC(=O)[C@H](Cc2ccccc2)NC(=O)[C@@H]2CSCCC(=O)N3CN(CN(C3)C(=O)CCSC[C@@H](C(=O)N[C@@H](CNC(=O)CCc3cn(CC(=O)N[C@H]4CSCCC(=O)N5CN6CN(C5)C(=O)CCSC[C@H](NC(=O)[C@@H](CC(=O)O)NC(=O)[C@H](Cc5cccc7ccccc57)NC(=O)[C@@H]5CCCN5C4=O)C(=O)N[C@@H](CCSC)C(=O)N[C@@H](CCCCNC(=N)N)C(=O)N[C@@H](CC(=O)O)C(=O)N[C@@H](Cc4c[nH]c5ccccc45)C(=O)N[C@@H](CO)C(=O)N[C@@H]([C@@H](C)O)C(=O)N4CCC[C@H]4C(=O)N4C[C@H](O)C[C@H]4C(=O)N[C@@H](Cc4c[nH]c5ccccc45)C(=O)N[C@H](C(N)=O)CSCCC6=O)nn3)C(N)=O)NC1=O)C(=O)CCSC[C@H](NC(C)=O)C(=O)N[C@@H](CC(C)(C)C)C(=O)N1CCC[C@H]1C(=O)N[C@@H](CCC(=O)O)C(=O)N[C@H](C)C(=O)N1CCC[C@H]1C(=O)N[C@@H](Cc1ccc(O)cc1)C(=O)N2 | Tumor necrosis factor receptor superfamily member 9/Nectin-4 | reporter gene, agonist | HT-1376 coculture with reporter cells |  | reference: background | Emax | 37 fold
Cc1cc2c(cc1N1C(=O)c3cccc4c(Cl)ccc(c34)C1=O)n(C)c(=O)n2C | Protein polybromo-1, bromodomain 3 (PBRM1, Homo sapiens, UniProt Q86U86) | binding, thermal shift |  | 10 µM | higher = stronger binding | thermal shift | 0.2 °C
O=c1nc(SCc2cc(F)cc(C(F)(F)F)c2)nc(SCc2ccc3nc(Cl)ccc3c2)[nH]1 | DNA topoisomerase 2-alpha (TOP2A, Homo sapiens, UniProt P11388) | ATPase activity |  | 125 µM, with: ATP 0.25 mM |  | ATP hydrolysis rate | 0.249 µM/min and 1.78 µM/min
Nc1ncnc2c1ncn2[C@@H]1O[C@H](CO)[C@@H](O)[C@H]1O | T2, ssDNA, aptamer | ITC |  |  |  | Kd | 48.8 µM
C#CCCOC(=O)[C@]1(C)C=C(C(=O)OC(C)(C)C)C(=O)CC1 | Mitogen-activated protein kinase 8 (MAPK8, Homo sapiens, UniProt P45983) | D-peptide binding, inhibitor, FP peptide displacement |  | 12.5 µM | lower is stronger displacement | fraction bound | 0.466
CC(=O)N[C@@H]1[C@@H](O[C@H]2O[C@H](CO)[C@H](O)[C@H](O)[C@H]2O)[C@@H](O)[C@@H](CO)O[C@@H]1O | Frizzled-8 (Xenopus laevis, UniProt Q91719) | binding, biolayer interferometry |  | 25 °C, with: immobilized biotinylated carbohydrate |  | association rate constant | 6100 M⁻¹ s⁻¹
Nc1ncnc2c1ncn2[C@@H]1O[C@H](COP(=O)(O)CP(=O)(O)OP(=O)(O)O)[C@@H](O)[C@H]1O | P2X purinoceptor 1 (P2RX1, Homo sapiens, UniProt P51575, D97A) | calcium influx |  | 10 nM | reference: ionomycin response | calcium influx | 0%
N[C@@H](CC(=O)O)C(=O)O | Methyl-accepting chemotaxis protein, ligand-binding domain (Pectobacterium atrosepticum, UniProt Q6D6I9) | thermal shift |  | ligand-binding domain | reference: ligand-free protein | ΔTm | 8.2 °C
CCCC[C@@H]1NC(=O)[C@H](Cc2ccc(O)cc2)NC(=O)[C@@H]2CCCN2C(=O)[C@H](CC(=O)O)NC(=O)[C@H](C)NC(=O)[C@H](Cc2ccccc2)NC(=O)[C@@H]2CSCCC(=O)N3CN(CN(C3)C(=O)CCSC[C@@H](C(=O)N[C@@H](CNC(=O)CCc3cn(CCOCCOCCOCCOCCOCCOCCOCCOCCOCCOCCOCCOCCOCCOCCOCCOCCOCCOCCOCCOCCOCCOCCOCCNC(=O)N[C@H]4CSCCC(=O)N5CN6CN(C5)C(=O)CCSC[C@H](NC(=O)[C@@H](CC(=O)O)NC(=O)[C@H](Cc5cccc7ccccc57)NC(=O)[C@@H]5CCCN5C4=O)C(=O)N[C@@H](CCSC)C(=O)N[C@@H](CCCCNC(=N)N)C(=O)N[C@@H](CC(=O)O)C(=O)N[C@@H](Cc4c[nH]c5ccccc45)C(=O)N[C@@H](CO)C(=O)N[C@@H]([C@@H](C)O)C(=O)N4CCC[C@H]4C(=O)N4C[C@H](O)C[C@H]4C(=O)N[C@@H](Cc4c[nH]c5ccccc45)C(=O)N[C@H](C(N)=O)CSCCC6=O)nn3)C(N)=O)NC1=O)C(=O)CCSC[C@H](NC(=O)[C@H](C)NC(C)=O)C(=O)N[C@@H]([C@@H](C)CC)C(=O)N[C@@H](CCC(=O)O)C(=O)N[C@@H](CCC(=O)O)C(=O)NCC(=O)N[C@@H](CCC(N)=O)C(=O)N[C@@H](Cc1ccc(O)cc1)C(=O)N2 | Tumor necrosis factor receptor superfamily member 9/Nectin-4 | reporter gene, agonist | HT-1376 coculture with reporter cells |  | reference: background | Emax | 24 fold
COCCC(=O)N1CCC(Oc2ccccc2)C1 (centres unmarked) | FBXW7 (Homo sapiens, UniProt Q969H0) | binding, affinity selection mass spectrometry |  |  | reference: other proteins in batch | log fold enrichment | -0.0877
O=C(C=Cc1cccc(F)c1)Nc1cc(-c2ccnc(N3CCC(O)CC3)c2)ccn1 | NR4A1 | SPR |  | 10.0 µM |  | binding response | 17.7 RU
COc1c(O)cc(O)c2c(=O)cc(-c3ccccc3)oc12 | Catechol O-methyltransferase (COMT, Homo sapiens, UniProt P21964) | UV |  |  | reference: native over denatured target | binding index | 7.84
c1ccc(-c2n[nH]cc2-c2ccnc3ccccc23)nc1 | Mitogen-activated protein kinase HOG1 (HOG1, Candida albicans, UniProt Q92207) | MIB/MS competition binding | Candida albicans cell lysate | 100 nM | reference: DMSO, lower = stronger binding | log2 fold change | 1.42
CN1C(C(=O)Nc2ccccn2)=C(O)c2sc(Cl)cc2S1(=O)=O | NR4A1 | reporter gene, Gal4 hybrid reporter |  | 30 µM | reference: vehicle | activation | 0.64 fold
CC(=O)N[C@H](C(=O)N[C@@H](CC(N)=O)C(=O)N[C@@H](CCCCN)C(=O)N1CCC[C@H]1C(=O)N[C@@H](CC(C)C)C(=O)N1CCC[C@H]1C(=O)N1CCC[C@H]1C(=O)N[C@@H](CC(C)C)C(=O)N1CCC[C@H]1C(=O)N[C@H](C(=O)N[C@@H](C)C(N)=O)C(C)C)C(C)C | High osmolarity signaling protein SHO1, SH3 domain (SHO1, Saccharomyces cerevisiae, UniProt P40073) | binding, isothermal titration calorimetry | 50 mM sodium phosphate, 100 mM NaCl | concentration not given, pH 7.0, 25 °C |  | enthalpy change | -6.74 ± 0.0478 kcal/mol
Oc1ccc(/C=C/c2cc(O)cc(O)c2)cc1 | O-methyltransferase (Sorghum bicolor, UniProt A0A1B6PFV1) | ITC |  | with: SAH+ |  | -TΔS | 5.26 kcal/mol
Nc1ncnc2c1ncn2[C@@H]1O[C@H](COP(=O)(O)OP(=O)(O)OP(=O)(O)O)[C@@H](O)[C@H]1O | P2X purinoceptor 7 (P2rx7, Rattus norvegicus, UniProt Q64663, I214A/R125A) | ion current, agonist, two-electrode voltage clamp | Xenopus laevis oocytes | 100 µM | reference: highest concentration response | normalized current | 0.658 and 0.6 and 0.533

Repeated from above:
SMILES | target | test | system | setting | how to read | measurement | result
Oc1ccc(/C=C/c2cc(O)cc(O)c2)cc1 | O-methyltransferase (Sorghum bicolor, UniProt A0A1B6PFV1) | ITC |  | with: SAH+ |  | -TΔS | 5.26 kcal/mol
CC(=O)N[C@@H]1[C@@H](O[C@H]2O[C@H](CO)[C@H](O)[C@H](O)[C@H]2O)[C@@H](O)[C@@H](CO)O[C@@H]1O | Frizzled-8 (Xenopus laevis, UniProt Q91719) | binding, biolayer interferometry |  | 25 °C, with: immobilized biotinylated carbohydrate |  | association rate constant | 6100 M⁻¹ s⁻¹
